Results gathered from unrelated publications.
Compare with care: the assays were run in different laboratories. Values joined by “and” are separate records of one study, mostly repeats; a detail may differ. ± marks the error that the study gave.

The tissue distribution of `CSCC[C@H](N)C(=O)N[C@@H](C)C(=O)N[C@@H](CCCNC(=N)N)C(=O)N[C@@H](CCCNC(=N)N)C(=O)N[C@@H](CC(=O)O)C(=O)N[C@@H](CCCCN)C(=O)N[C@H](C(=O)N[C@@H](CC(=O)O)C(=O)N[C@@H](Cc1ccccc1)C(=O)N[C@@H](C)C(=O)N[C@@H](CCCNC(=N)N)C(=O)N[C@@H](CCCNC(=N)N)C(=O)N[C@@H](CCCNC(=N)N)C(=O)N[C@@H](CCCNC(=N)N)C(=O)NCCCCCC(=O)NCCCCC(NC(=O)CCCCCNC(=O)[C@H](CCCNC(=N)N)NC(=O)[C@H](CCCNC(=N)N)NC(=O)[C@H](CCCNC(=N)N)NC(=O)[C@H](CCCNC(=N)N)NC(=O)[C@H](C)NC(=O)[C@H](Cc1ccccc1)NC(=O)[C@H](CC(=O)O)NC(=O)[C@@H](NC(=O)[C@H](CCCCN)NC(=O)[C@H](CC(=O)O)NC(=O)[C@H](CCCNC(=N)N)NC(=O)[C@H](CCCNC(=N)N)NC(=O)[C@H](C)NC(=O)[C@@H](N)CCSC)[C@@H](C)O)C(=O)NCCCCC(NC(=O)C(CCCCNC(=O)CCCCCNC(=O)[C@H](CCCNC(=N)N)NC(=O)[C@H](CCCNC(=N)N)NC(=O)[C@H](CCCNC(=N)N)NC(=O)[C@H](CCCNC(=N)N)NC(=O)[C@H](C)NC(=O)[C@H](Cc1ccccc1)NC(=O)[C@H](CC(=O)O)NC(=O)[C@@H](NC(=O)[C@H](CCCCN)NC(=O)[C@H](CC(=O)O)NC(=O)[C@H](CCCNC(=N)N)NC(=O)[C@H](CCCNC(=N)N)NC(=O)[C@H](C)NC(=O)[C@@H](N)CCSC)[C@@H](C)O)NC(=O)CCCCCNC(=O)[C@H](CCCNC(=N)N)NC(=O)[C@H](CCCNC(=N)N)NC(=O)[C@H](CCCNC(=N)N)NC(=O)[C@H](CCCNC(=N)N)NC(=O)[C@H](C)NC(=O)[C@H](Cc1ccccc1)NC(=O)[C@H](CC(=O)O)NC(=O)[C@@H](NC(=O)[C@H](CCCCN)NC(=O)[C@H](CC(=O)O)NC(=O)[C@H](CCCNC(=N)N)NC(=O)[C@H](CCCNC(=N)N)NC(=O)[C@H](C)NC(=O)[C@@H](N)CCSC)[C@@H](C)O)C(N)=O)[C@@H](C)O` (stereo partly drawn) is reported as 0.33% and 0.22% and 0.36% (C57BL/6 mouse female, ovary; dose not given, 6 h; baseline: total).
For `Cc1ccc(N2CC3CCC(C2)N3C)cc1C(=O)N[C@H](C)c1cc(-c2cnn(C)c2)nc2ccccc12`, the unbound fraction was 5.8% and 5.5% (mouse, plasma).
Under “uptake in adrenal gland”, `N#[11C]c1ccc(-c2csc(NN=C3CCCC3)n2)cc1` is recorded as 7.18 ± 2.07 %ID/g (C57BL/6 mouse, male; intravenous, 3 MBq, 30 min).
`Cc1ccc(CNC(=O)c2ccn3c(-c4ccc(C#N)cc4)cnc3c2)cn1` gave an unbound fraction of 0.066 (human plasma).
`CSCC[C@H](NC(=O)CNC(=O)[C@H](CCCCN)NC(=O)[C@H](CC(C)C)NC(=O)[C@@H]1CCCN1C(=O)[C@H](CO)NC(=O)[C@H](Cc1c[nH]cn1)NC(=O)[C@H](Cc1c[nH]c2ccccc12)NC(=O)[C@H](CCCNC(=N)N)NC(=O)[C@H](CC(C)C)NC(=O)[C@H](CCCNC(=N)N)NC(=O)[C@H](Cc1c[nH]c2ccccc12)NC(=O)[C@H](CS)NC(=O)CCCCCNC(=O)CN1CCN(CC(=O)O)CCN(CC(=O)O)CCN(CC(=O)O)CC1)C(=O)O` [copper-64 labelled] gave a tissue uptake of 2.71 %ID/g (male C57BL/6J mice, B16-F10 tumour, small intestine; intravenous, 1.85 MBq, 30 h).
`CC[C@H](C)[C@H](NC(=O)[C@H](CCCCN)NC(=O)CNC(=O)[C@H](CC(C)C)NC(=O)[C@H](Cc1ccccc1)NC(=O)[C@H](CCCCN)NC(=O)[C@H](CO)NC(=O)[C@H](Cc1ccccc1)NC(=O)[C@H](Cc1c[nH]c2ccccc12)NC(=O)[C@H](CCC(N)=O)NC(=O)[C@@H](NC(=O)[C@H](Cc1ccccc1)NC(=O)CCCCCNC(=O)CN1CCN(CC(=O)O)CCN(CC(=O)O)CCN(CC(=O)O)CC1)C(C)C)C(=O)N[C@@H](CCC(=O)O)C(=O)N1CCC[C@H]1C(=O)N[C@@H](CC(=O)O)C(=O)N[C@H](C(=O)N[C@@H](CO)C(=O)N[C@@H](CCC(N)=O)C(=O)N[C@H](C(=O)N[C@@H](CCC(N)=O)C(=O)N[C@@H](CC(=O)O)C(=O)N1CCC[C@H]1C(=O)N[C@@H](CC(N)=O)C(=O)N[C@@H](CC(=O)O)C(=O)N[C@@H](CCC(N)=O)C(=O)N[C@@H](Cc1ccc(O)cc1)C(=O)N[C@@H](CCC(=O)O)C(=O)N1CCC[C@H]1C(=O)N[C@@H](Cc1ccccc1)C(=O)O)C(C)C)C(C)C` [copper-64 labelled] has an SUVmean of 2.95 SUV (dynamic PET; mouse both sexes, CT26 tumour, checkpoint inhibitor-treated, tumour; intravenous, 100 µCi/mouse, 450 s).
`CC(C)C[C@H](NC(=O)[C@H](CCCCN)NC(=O)[C@H](CCC(N)=O)NC(=O)[C@@H](N)Cc1c[nH]cn1)C(=O)N[C@H](C(=O)N[C@@H](CC(N)=O)C(=O)N[C@@H](Cc1ccccc1)C(=O)N[C@@H](C)C(=O)N[C@@H](CCC(=O)O)C(=O)N[C@@H](CC(=O)O)C(=O)N[C@H](C(=O)O)C(C)C)C(C)C`: “turbidity onset concentration” 1.3 mg/mL (OD600; 20 mM Tris-HCl; pH 7.4).
`COc1ccc(C([O-])=CC(=O)c2ccc(C(C)(C)C)cc2)cc1.[Ru+2].c1ccc(-c2ccnc3c2ccc2c(-c4ccccc4)ccnc23)cc1.c1ccc(-c2ccnc3c2ccc2c(-c4ccccc4)ccnc23)cc1` gave a viability of 100% (zebrafish larvae; 10 µM, 96 h, dark; baseline: normal).
`CC[C@H](C)[C@H](NC(=O)[C@H](Cc1c[nH]cn1)NC(=O)[C@H](CCCCN)NC(=O)[C@H](C)NC(=O)[C@H](C)NC(=O)[C@H](Cc1c[nH]cn1)NC(=O)[C@H](CCCNC(=N)N)NC(=O)CNC(=O)[C@H](Cc1c[nH]cn1)NC(=O)[C@H](CCCCN)NC(=O)[C@H](Cc1ccccc1)NC(=O)[C@@H](NC(=O)[C@H](CO)NC(=O)CNC(=O)[C@H](Cc1c[nH]c2ccccc12)NC(=O)CN)[C@@H](C)CC)C(=O)NCC(=O)N[C@@H](Cc1c[nH]cn1)C(=O)N[C@@H](C)C(=O)N[C@@H](C)C(=O)N[C@H](C(=O)N[C@@H](CC(N)=O)C(=O)N[C@@H](Cc1c[nH]cn1)C(=O)N[C@@H](Cc1ccc(O)cc1)C(=O)N[C@@H](CC(C)C)C(N)=O)C(C)C`: “chronic toxic concentration” 5 µM (zebrafish embryos 4 hpf, E3 medium; 24 h).
`CN1Cc2cc(Cl)ccc2-n2c(nnc2C2CCN(c3cccc(F)n3)CC2)C1` has an AUC of 4.48 ng·h/mL (Sprague-Dawley rats male, striatum; intravenous, 0.03 mg/kg).
With `CC(C)C[C@@H](NC(=O)[C@@H](CCCNC(=N)N)NC(=O)[C@@H](Cc1c[nH]cn1)NC(=O)[C@@H](Cc1c[nH]c2ccccc12)NC(=O)[C@@H](Cc1c[nH]cn1)NC(=O)[C@@H](Cc1ccccc1)NC(=O)[C@H](NC(=O)[C@@H](Cc1ccc(O)cc1)NC(=O)CNC(=O)CNC(=O)CCOCCOCCOCCNC(=O)CN1CCN(CC(=O)O)CCN(CC(=O)O)CC1)[C@H](C)O)C(=O)N[C@H](CC(N)=O)C(=O)N1CCC[C@@H]1C(=O)O` [gallium-68 labelled] the tumour-to-tissue ratio was 1.09 ± 0.41 (male C57BL/6 mice; intravenous, 1.85 MBq, 60 min, together with: GP12 blocking; baseline: tumour over heart).
Under “remaining intact peptide”, `CCCCCCCCCCCC(=O)C(C)C(=O)N1CCC[C@H]1C(=O)NC(C)(C)C(=O)NC(C)(C)C(=O)NC(C)(C)C(=O)N[C@](C)(CC)C(=O)NCCC(=O)N[C@@H](C)C(=O)N[C@](C)(CC)C(=O)N[C@@H](C)C(=O)N[C@@H](CC(C)C)C(=O)N[C@](C)(CC)C(=O)NCCC(=O)N[C@@H](C)C(=O)N[C@](C)(CC)C(=O)NCCC(=O)N[C@@H](C)C(=O)NC(C)(C)C(=O)NC(C)(C)C(=O)NC(C)(C)C(=O)N[C@@H](C)C(=O)N[C@@H](CC(=O)O)C(=O)O` (stereo partly drawn) is recorded as 46.5% and 48.7% (LC-MS; 50% pooled human serum; 40 µM, 60 min, pH 7.5, 37 °C; baseline: 0 h).
`COc1cc2c(cc1O)C(CCc1ccc(Cl)cc1)N([11CH3])CC2` (stereo not drawn) — result for “half-maximal concentration, time to”: 11 min (PET; Sprague-Dawley rat, male, brain NR2B-rich regions; intravenous, 1 mg/kg, carrier added).
Under “organ-to-brain weight ratio”, `O=C1NC2(CC2)COc2ncc(F)cc2[C@H]2COCCN2c2ccn3ncc1c3n2` is recorded as 103 ± 9.31% (Sprague-Dawley rat, female, kidneys; oral, 10 mg/kg/day, 4 weeks dosing, end of recovery).
For `CC(C)=CCC/C(C)=C/CCn1cc(CC(C)(P(=O)(O)O)P(=O)(O)O)nn1`, the biliary excretion was 0.053% (mouse CD-1; intravenous, 0.3 mg/kg, 24 h; baseline: dose).
The AUC(0-inf) of `CCCCCCCCCCCCCC(=O)N[C@H](CCN)C(=O)N[C@@H]1C(=O)N[C@@H](CCN)C(=O)N[C@@H](CC(C)C)C(=O)N[C@@H](CCN)C(=O)N[C@H](Cc2ccccc2)C(=O)N[C@@H](CC(C)C)C(=O)N[C@@H](CCN)C(=O)N[C@H](CCN)C(=O)N[C@@H](C(C)C)C(=O)N[C@@H](CC(=O)O)C(=O)O[C@@H]1C` is reported as 56700 ng·h/mL (rat, plasma; intravenous, 5 mg/kg).
Under “cis isomer at photostationary state”, `CC(C)Oc1cccc(/N=N/c2ccc3[nH]cc(CCN(C)C)c3c2)c1` is recorded as 83% (light irradiation; solution; together with: light 385 nm).
`CCC1=C(C)C2=C(c3ccc(P(=NC4=[O+][Ru-]([Cl])[n+]5ccccc54)(c4ccccc4)c4ccccc4)cc3)c3c(C)c(CC)c(C)n3[B-](C)(C)[N+]2=C1C.Cc1ccc(C(C)C)cc1.[Cl-]` has a logP of 2.2 ± 0.27 (LC-MS shake flask; 1-octanol/PBS).
